Measured values gathered from unrelated publications.
Numbered parts are unrelated; each lists some results of a single study. Values joined by “and” are separate records of one study, mostly repeats; a detail may differ.
Sequence of UniProt O75460 (whole entry, looked up): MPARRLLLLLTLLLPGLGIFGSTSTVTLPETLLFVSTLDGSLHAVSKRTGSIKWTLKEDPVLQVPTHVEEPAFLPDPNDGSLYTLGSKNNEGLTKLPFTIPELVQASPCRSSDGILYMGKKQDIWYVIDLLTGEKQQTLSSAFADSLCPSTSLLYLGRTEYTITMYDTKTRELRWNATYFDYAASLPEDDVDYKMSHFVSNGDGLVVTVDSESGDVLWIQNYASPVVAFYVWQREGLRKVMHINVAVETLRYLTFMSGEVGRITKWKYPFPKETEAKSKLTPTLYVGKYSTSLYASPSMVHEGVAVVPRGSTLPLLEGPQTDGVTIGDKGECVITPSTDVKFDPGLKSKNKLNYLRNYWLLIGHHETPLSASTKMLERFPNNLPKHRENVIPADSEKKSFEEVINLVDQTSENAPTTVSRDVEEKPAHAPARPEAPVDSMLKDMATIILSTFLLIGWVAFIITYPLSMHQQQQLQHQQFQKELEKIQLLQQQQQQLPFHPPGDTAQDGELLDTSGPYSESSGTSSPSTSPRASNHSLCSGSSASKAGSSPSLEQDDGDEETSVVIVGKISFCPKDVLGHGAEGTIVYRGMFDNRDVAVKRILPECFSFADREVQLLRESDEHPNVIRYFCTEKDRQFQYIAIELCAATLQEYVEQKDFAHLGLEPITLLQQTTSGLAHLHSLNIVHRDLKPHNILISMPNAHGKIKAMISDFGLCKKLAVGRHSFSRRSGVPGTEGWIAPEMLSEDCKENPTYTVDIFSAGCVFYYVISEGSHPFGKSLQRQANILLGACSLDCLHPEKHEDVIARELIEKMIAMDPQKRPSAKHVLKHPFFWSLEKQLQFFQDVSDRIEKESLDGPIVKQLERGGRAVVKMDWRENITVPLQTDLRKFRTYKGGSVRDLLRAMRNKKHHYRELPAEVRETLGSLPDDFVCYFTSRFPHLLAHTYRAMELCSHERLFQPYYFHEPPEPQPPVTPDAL
Sequence of UniProt P53671 (whole entry, looked up): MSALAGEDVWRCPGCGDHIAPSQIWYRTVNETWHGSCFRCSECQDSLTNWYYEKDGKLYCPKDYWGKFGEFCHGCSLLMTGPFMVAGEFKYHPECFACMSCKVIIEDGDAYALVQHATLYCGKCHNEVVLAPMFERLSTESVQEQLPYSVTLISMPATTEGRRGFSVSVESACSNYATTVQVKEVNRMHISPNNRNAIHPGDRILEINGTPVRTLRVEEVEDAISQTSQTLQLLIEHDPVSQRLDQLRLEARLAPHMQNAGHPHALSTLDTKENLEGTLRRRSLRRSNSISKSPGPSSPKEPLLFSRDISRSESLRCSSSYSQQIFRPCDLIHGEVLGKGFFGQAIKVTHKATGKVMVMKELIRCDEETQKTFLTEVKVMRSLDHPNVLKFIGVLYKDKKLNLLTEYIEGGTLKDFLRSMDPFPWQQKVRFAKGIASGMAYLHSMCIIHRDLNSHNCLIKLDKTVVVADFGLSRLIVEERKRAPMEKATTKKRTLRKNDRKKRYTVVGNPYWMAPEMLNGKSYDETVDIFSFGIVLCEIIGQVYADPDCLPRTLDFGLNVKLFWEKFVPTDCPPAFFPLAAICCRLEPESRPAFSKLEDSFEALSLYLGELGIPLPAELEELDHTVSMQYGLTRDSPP
Sequence of UniProt Q15375 (whole entry, looked up): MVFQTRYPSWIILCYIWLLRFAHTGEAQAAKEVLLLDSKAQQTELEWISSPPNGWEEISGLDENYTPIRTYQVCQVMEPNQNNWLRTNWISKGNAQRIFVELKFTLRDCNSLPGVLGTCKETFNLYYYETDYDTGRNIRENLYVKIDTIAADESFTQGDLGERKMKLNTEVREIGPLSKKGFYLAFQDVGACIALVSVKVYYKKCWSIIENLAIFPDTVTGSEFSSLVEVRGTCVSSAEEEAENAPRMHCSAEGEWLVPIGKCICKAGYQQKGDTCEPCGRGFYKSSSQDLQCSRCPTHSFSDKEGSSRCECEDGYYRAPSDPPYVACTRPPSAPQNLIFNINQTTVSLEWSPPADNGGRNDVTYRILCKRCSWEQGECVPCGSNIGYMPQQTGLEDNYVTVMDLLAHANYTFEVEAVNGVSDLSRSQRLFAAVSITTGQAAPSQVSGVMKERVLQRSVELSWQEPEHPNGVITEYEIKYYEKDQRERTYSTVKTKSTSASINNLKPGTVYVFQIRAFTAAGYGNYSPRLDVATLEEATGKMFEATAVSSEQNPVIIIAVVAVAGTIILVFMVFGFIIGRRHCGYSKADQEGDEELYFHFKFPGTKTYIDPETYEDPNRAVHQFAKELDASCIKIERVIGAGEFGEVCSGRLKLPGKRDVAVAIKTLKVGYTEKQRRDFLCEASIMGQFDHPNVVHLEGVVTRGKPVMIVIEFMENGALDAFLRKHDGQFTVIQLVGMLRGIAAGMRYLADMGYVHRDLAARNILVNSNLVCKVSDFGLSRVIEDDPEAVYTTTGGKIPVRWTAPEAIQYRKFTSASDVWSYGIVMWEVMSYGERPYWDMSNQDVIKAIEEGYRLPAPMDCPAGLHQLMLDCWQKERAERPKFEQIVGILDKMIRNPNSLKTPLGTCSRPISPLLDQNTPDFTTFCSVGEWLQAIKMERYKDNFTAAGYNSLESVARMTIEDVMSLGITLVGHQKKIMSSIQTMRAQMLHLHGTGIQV
Sequence of UniProt Q14004 (whole entry, looked up): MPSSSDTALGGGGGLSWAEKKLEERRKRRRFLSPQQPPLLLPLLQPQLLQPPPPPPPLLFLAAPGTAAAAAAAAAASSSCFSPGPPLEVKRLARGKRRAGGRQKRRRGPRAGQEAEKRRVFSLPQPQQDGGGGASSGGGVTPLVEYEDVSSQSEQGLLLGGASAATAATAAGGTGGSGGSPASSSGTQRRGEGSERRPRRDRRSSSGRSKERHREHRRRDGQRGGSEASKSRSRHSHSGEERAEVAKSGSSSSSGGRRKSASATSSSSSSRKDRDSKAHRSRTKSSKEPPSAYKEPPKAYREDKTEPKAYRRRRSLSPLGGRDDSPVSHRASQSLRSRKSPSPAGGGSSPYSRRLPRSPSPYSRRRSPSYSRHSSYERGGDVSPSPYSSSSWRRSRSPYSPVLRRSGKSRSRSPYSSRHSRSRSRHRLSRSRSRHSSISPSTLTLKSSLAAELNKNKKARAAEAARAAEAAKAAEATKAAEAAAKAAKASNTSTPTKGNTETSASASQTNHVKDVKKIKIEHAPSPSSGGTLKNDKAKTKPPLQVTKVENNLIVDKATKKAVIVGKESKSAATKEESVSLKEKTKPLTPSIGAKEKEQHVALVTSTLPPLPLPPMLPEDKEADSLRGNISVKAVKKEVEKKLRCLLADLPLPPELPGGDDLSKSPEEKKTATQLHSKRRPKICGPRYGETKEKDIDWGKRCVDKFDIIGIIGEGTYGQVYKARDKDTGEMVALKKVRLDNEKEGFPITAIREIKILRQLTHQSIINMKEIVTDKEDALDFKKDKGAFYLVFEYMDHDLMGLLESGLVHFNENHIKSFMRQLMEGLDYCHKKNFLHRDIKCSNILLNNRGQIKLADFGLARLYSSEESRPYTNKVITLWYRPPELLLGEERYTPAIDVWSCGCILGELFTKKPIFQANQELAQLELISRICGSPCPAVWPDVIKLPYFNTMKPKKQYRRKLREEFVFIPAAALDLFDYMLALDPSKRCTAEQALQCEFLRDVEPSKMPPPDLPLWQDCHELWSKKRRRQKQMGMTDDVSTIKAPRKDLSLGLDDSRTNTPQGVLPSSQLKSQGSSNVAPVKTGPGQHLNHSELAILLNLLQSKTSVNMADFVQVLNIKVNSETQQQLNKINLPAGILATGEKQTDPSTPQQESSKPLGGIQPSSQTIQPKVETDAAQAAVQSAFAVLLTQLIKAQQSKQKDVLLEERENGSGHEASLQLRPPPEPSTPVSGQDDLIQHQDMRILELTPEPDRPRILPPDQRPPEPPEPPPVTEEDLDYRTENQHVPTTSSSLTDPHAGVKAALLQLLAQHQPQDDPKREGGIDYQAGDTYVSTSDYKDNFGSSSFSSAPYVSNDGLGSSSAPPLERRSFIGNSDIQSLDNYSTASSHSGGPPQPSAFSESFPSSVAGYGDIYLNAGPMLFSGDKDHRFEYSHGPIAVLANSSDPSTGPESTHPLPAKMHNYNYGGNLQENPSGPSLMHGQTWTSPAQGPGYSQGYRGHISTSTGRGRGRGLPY
Sequence of UniProt P08631 (whole entry, looked up): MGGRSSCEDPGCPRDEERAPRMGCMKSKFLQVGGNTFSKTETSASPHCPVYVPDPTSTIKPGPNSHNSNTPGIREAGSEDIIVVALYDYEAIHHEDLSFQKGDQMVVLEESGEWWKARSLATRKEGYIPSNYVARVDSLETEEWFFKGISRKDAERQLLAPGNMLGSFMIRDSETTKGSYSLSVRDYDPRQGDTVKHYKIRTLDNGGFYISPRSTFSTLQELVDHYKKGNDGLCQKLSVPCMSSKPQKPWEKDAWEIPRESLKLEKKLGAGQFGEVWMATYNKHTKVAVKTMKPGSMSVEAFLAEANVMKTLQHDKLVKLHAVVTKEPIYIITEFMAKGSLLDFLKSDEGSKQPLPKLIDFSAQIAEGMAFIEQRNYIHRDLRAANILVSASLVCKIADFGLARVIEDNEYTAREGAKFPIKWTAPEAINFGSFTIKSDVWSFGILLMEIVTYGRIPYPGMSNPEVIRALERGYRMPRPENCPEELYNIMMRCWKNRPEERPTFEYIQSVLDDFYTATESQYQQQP
Sequence of UniProt Q8TBX8 (whole entry, looked up): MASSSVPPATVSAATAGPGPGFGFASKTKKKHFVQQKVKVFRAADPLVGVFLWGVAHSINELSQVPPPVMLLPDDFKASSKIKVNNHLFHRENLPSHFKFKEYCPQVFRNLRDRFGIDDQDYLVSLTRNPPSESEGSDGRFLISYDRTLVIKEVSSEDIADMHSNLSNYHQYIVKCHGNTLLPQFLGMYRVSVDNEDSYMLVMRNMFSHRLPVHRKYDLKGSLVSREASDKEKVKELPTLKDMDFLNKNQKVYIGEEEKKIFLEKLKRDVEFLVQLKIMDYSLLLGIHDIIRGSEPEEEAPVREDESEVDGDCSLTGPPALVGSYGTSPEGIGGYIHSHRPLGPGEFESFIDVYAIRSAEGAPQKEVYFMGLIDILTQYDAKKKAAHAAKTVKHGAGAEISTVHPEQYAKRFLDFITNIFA

Sample 1 — species: C57BL/6 IFN-γ knockout mouse female; matrix: plasma; route: oral; dose: 10 mg/kg; time: 1 h
The plasma concentration of CCOC(=O)CN(C(=O)c1ccn2ncc(-c3ccc(C(=O)NC)cc3)c2c1)c1ccc(Cl)cc1 is reported as 0.301 µM and 0.336 µM.
COC(=O)c1cc(Cl)ccc1N(C)C(=O)c1ccn2ncc(-c3ccc(C(N)=O)cc3)c2c1 has a plasma concentration of 0.044 µM and 0.03 µM.
For CN(C(=O)c1ccn2ncc(-c3ccc(C(N)=O)cc3)c2c1)c1ccc(C#N)cn1, the plasma concentration was 0.618 µM and 0.56 µM.
With CNC(=O)c1ccc(-c2cnn3ccc(C(=O)N(C[C@H]4CCC(=O)O4)c4ccc(OC(F)(F)F)cc4)cc23)cc1 the plasma concentration was 0.046 µM and 0.018 µM and 0.031 µM.

Sample 2 — cell line: A-375; tested at: 100 µM; time: 36 h
With O=C(O)[C@@H](S)[C@@H](S)C(=O)O the viability was 111%.
For CCN1CCN(c2cc(-c3ccc(F)cc3)c3c(n2)CCCCCC3)CC1, the viability was -0.916%.
CC(C)n1c(/C=C/[C@H](O)C[C@H](O)CC(=O)O)c(-c2ccc(F)cc2)c2ccccc21 (racemic) has a viability of 53.6%.
With O=C1CCCC(=O)C1C(=O)c1ccc(C(F)(F)F)cc1[N+](=O)[O-] the viability was 104%.
The viability of CC(=O)OCC1=C(C(=O)O)N2C(=O)[C@@H](NC(=O)Cc3cccs3)[C@H]2SC1 is reported as 101%.
OCCOc1ccc(/C(=C(/CCCl)c2ccccc2)c2ccccc2)cc1 gave a viability of 1.91%.
For NC(=O)c1cn(Cc2c(F)cccc2F)nn1, the viability was 106%.
Cc1cccc(C)c1OCC(C)N (stereo not shown) gave a viability of 90.8%.
O=C(c1ccc(F)c(F)c1Nc1ccc(I)cc1F)N1CC(O)([C@@H]2CCCCN2)C1 gave a viability of 0.743%.
The viability of CCCCN1CCCCC1C(=O)Nc1c(C)cccc1C (stereo not shown) is reported as 92.1%.
The viability of CCN(CCCc1ccccc1)CCCc1ccccc1 is reported as -2.72%.
CCOC(=O)C(C)(C)Oc1ccc(Cl)cc1 gave a viability of 84.4%.
The viability of Cc1cc2nc3c(=O)[nH]c(=O)nc-3n(C[C@H](O)[C@H](O)[C@H](O)CO)c2cc1C is reported as 102%.
The viability of Cc1c(CNCS(=O)(=O)O)c(=O)n(-c2ccccc2)n1C is reported as 112%.
The viability of Cc1c(N(C)CS(=O)(=O)O)c(=O)n(-c2ccccc2)n1C is reported as 106% and 93.1%.
With COc1cc([C@@H]2c3cc4c(cc3[C@@H](O[C@@H]3O[C@@H]5CO[C@@H](c6cccs6)O[C@H]5[C@H](O)[C@H]3O)[C@H]3COC(=O)[C@H]23)OCO4)cc(OC)c1O the viability was 23.5%.
C=C1c2cccc(O)c2C(=O)C2=C(O)[C@]3(O)C(=O)C(C(N)=O)=C(O)[C@@H](N(C)C)[C@@H]3[C@@H](O)[C@H]12 gave a viability of 129%.

Sample 3 — species: human; matrix: microsomes or S9; tested at: 2 µM; time: 0.5 h
CCOC(=O)Cn1nc(C)c(NC(=O)Cn2nc(C)c(Br)c2C)c1C has a remaining compound of 88.4%.
O=C(Nc1ncc(Cl)cc1Cl)c1cc2ncccn2n1 gave a remaining compound of 78.9%.
With COC(=O)c1scc2c(NCCc3ccc(F)cc3)c(C(C)=O)c(=O)[nH]c12 the remaining compound was 0.282%.
CCOc1cc(=O)n2c(c1C(=O)NCC1CCCO1)CCCCC2 (stereo not shown) gave a remaining compound of 91.7%.
The remaining compound of O=C(NCc1cccnc1)c1c(OCC2CC2)cc(=O)n2c1CCOCC2 is reported as 84.9%.
The remaining compound of Cn1cnc2cc(N3CC(=O)C(c4nc(-c5ccccc5)cs4)=C3N)ccc21 is reported as 79.5%.
With c1ccc(Cn2ncc3c(-n4ccnc4)ncnc32)cc1 the remaining compound was > 100%.
With CN1CCC(N(C)C(=O)c2cc3cc(Br)cc(Br)c3o2)CC1 the remaining compound was 69.5%.
Cc1ccn(-c2ccc(NS(=O)(=O)c3ccc(C4CNC(=O)C4)cc3)cc2)n1 (stereo not shown) gave a remaining compound of 50%.
O=c1c(Br)c(Br)cnn1CCn1ncc(Br)c(Br)c1=O has a remaining compound of 66.1%.
Fc1ccc2nccc(Nc3ccccc3F)c2c1 gave a remaining compound of 90.5%.

Sample 4 — technique: ATPlite
Structure (SMILES): C[C@@H]1CN(c2ccc(-c3cc(C(=O)NCCOCCOCCOCCOCCOCCOCCNC(=O)/C=C/c4[nH]cc(C(=O)N[C@@H](CC(N)=O)c5ccc(F)c(Cl)c5)c4-c4ccc(Cl)cc4F)ccc3F)cc2NC(=O)c2ccc(F)cc2C(F)(F)F)C[C@H](C)N1C
MV4-11; 0.1 µM, 5 days; reference: DMSO — viability: 60.1% and 89.5% and 78.7% and 74.9%.
For MV4-11; 4.64 µM, 5 days; reference: DMSO: viability read 37% and 39% and 30.8%.
MV4-11 expressing HiBiT-WDR5; RPMI with 10% FBS; 88.1 nM, 24 h — viability: 109% and 89.4% and 107%.
MV4-11; 0.0215 µM, 5 days; reference: DMSO — viability: 77.5% and 75.1% and 96.4% and 84.8%.
For MV4-11 expressing HiBiT-WDR5; RPMI with 10% FBS; 34.2 nM, 24 h: viability read 99.4% and 107% and 79.4%.
It gave 101% and 86.1% and 105% for viability (MV4-11 expressing HiBiT-WDR5; RPMI with 10% FBS; 10000 nM, 24 h).

Sample 5 — tested at: 1 µM
SMILES: Cc1nc(Cc2cccc(C(F)(F)F)c2)sc1-c1ccc(C(N)=O)nc1
Hepatocyte growth factor receptor (MET, Homo sapiens, UniProt P08581, Y1235D); cell-free assay, competition with immobilised ligand — remaining binding: 91%.
The remaining binding was 95% (Ribosomal protein S6 kinase alpha-2, N-terminal kinase domain (RPS6KA2, Homo sapiens, UniProt Q15349); cell-free assay, competition with immobilised ligand).
For Tyrosine-protein kinase HCK (HCK, Homo sapiens, UniProt P08631); cell-free assay, competition with immobilised ligand: remaining binding read 100%.
The remaining binding was 100% (Ribosomal protein S6 kinase alpha-6, C-terminal kinase domain (RPS6KA6, Homo sapiens, UniProt Q9UK32); cell-free assay, competition with immobilised ligand).
It gave 93% for remaining binding (Tyrosine-protein kinase ABL1, non-phosphorylated (ABL1, Homo sapiens, UniProt P00519, F317L); cell-free assay, competition with immobilised ligand).
It gave 100% for remaining binding (Serine/threonine-protein kinase PLK1 (PLK1, Homo sapiens, UniProt P53350); cell-free assay, competition with immobilised ligand).
Phosphatidylinositol 5-phosphate 4-kinase type-2 gamma (PIP4K2C, Homo sapiens, UniProt Q8TBX8); binding, competition with immobilised ligand — remaining binding: 0.3%.
Aurora kinase C (AURKC, Homo sapiens, UniProt Q9UQB9); cell-free assay, competition with immobilised ligand — remaining binding: 100%.
It gave 81% for remaining binding (RAC-beta serine/threonine-protein kinase (AKT2, Homo sapiens, UniProt P31751); cell-free assay, competition with immobilised ligand).
For Maternal embryonic leucine zipper kinase (MELK, Homo sapiens, UniProt Q14680); cell-free assay, competition with immobilised ligand: remaining binding read 100%.
It gave 100% for remaining binding (Epidermal growth factor receptor (EGFR, Homo sapiens, UniProt P00533, del747-750/T751S); cell-free assay, competition with immobilised ligand).
MAP kinase-interacting serine/threonine-protein kinase 2 (MKNK2, Homo sapiens, UniProt Q9HBH9); cell-free assay, competition with immobilised ligand — remaining binding: 100%.
Cyclin-dependent kinase 19 (CDK19, Homo sapiens, UniProt Q9BWU1); competition binding — remaining binding: 98%.
It gave 70% for remaining binding (Tyrosine-protein kinase TXK (TXK, Homo sapiens, UniProt P42681); binding, competition with immobilised ligand).
For Mitogen-activated protein kinase kinase kinase kinase 2 (MAP4K2, Homo sapiens, UniProt Q12851); cell-free assay, competition with immobilised ligand: remaining binding read 100%.
It gave 83% for remaining binding (MAP/microtubule affinity-regulating kinase 4 (MARK4, Homo sapiens, UniProt Q96L34); cell-free assay, competition with immobilised ligand).
For Serine/threonine-protein kinase/endoribonuclease IRE1 (ERN1, Homo sapiens, UniProt O75460); cell-free assay, competition with immobilised ligand: remaining binding read 100%.
BMP-2-inducible protein kinase (BMP2K, Homo sapiens, UniProt Q9NSY1); cell-free assay, competition with immobilised ligand — remaining binding: 100%.
For Cyclin-dependent kinase-like 1 (CDKL1, Homo sapiens, UniProt Q00532); binding, competition with immobilised ligand: remaining binding read 85%.
Cyclin-dependent kinase 13 (CDK13, Homo sapiens, UniProt Q14004); cell-free assay, competition with immobilised ligand — remaining binding: 100%.
For LIM domain kinase 2 (LIMK2, Homo sapiens, UniProt P53671); cell-free assay, competition with immobilised ligand: remaining binding read 98%.
Receptor-type tyrosine-protein kinase FLT3, autoinhibited (FLT3, Homo sapiens, UniProt P36888); cell-free assay, competition with immobilised ligand — remaining binding: 93%.
Dual specificity mitogen-activated protein kinase kinase 4 (MAP2K4, Homo sapiens, UniProt P45985); cell-free assay, competition with immobilised ligand — remaining binding: 100%.
For Ephrin type-A receptor 7 (EPHA7, Homo sapiens, UniProt Q15375); cell-free assay, competition with immobilised ligand: remaining binding read 100%.

Further values, each from its own experiment
CCC[C@@H]1NC(=O)CSC[C@@H](C(=O)OCC)N(C)C(=O)[C@H](CC(C)C)NC(=O)[C@@H](C)N(C)C(=O)[C@H](CC(C)C)NC(=O)[C@H](C)N(C)C(=O)[C@H]2CCCN2C(=O)[C@@H](CC(C)C)NC(=O)CN(CCC)C1=O has a logD of 0.697 (hydrocarbon/water).
The remaining activity of c1ccc2c(-c3nn4c(-c5ccncc5)nnc4s3)c[nH]c2c1 is reported as 1.49 and 1.62 and 1.53 and 1.31 and 1.27 and 1.63 and 1.4 and 1.19 (α-galactosidase (human, wild type); healthy dermal fibroblasts; 0.5 µM, unit not given; reference: DMSO).

A few entries again (sample 5):
It gave 81% for remaining binding (RAC-beta serine/threonine-protein kinase (AKT2, Homo sapiens, UniProt P31751); cell-free assay, competition with immobilised ligand).
For Maternal embryonic leucine zipper kinase (MELK, Homo sapiens, UniProt Q14680); cell-free assay, competition with immobilised ligand: remaining binding read 100%.
It gave 100% for remaining binding (Epidermal growth factor receptor (EGFR, Homo sapiens, UniProt P00533, del747-750/T751S); cell-free assay, competition with immobilised ligand).
MAP kinase-interacting serine/threonine-protein kinase 2 (MKNK2, Homo sapiens, UniProt Q9HBH9); cell-free assay, competition with immobilised ligand — remaining binding: 100%.
Cyclin-dependent kinase 19 (CDK19, Homo sapiens, UniProt Q9BWU1); competition binding — remaining binding: 98%.
It gave 70% for remaining binding (Tyrosine-protein kinase TXK (TXK, Homo sapiens, UniProt P42681); binding, competition with immobilised ligand).
For Mitogen-activated protein kinase kinase kinase kinase 2 (MAP4K2, Homo sapiens, UniProt Q12851); cell-free assay, competition with immobilised ligand: remaining binding read 100%.
It gave 83% for remaining binding (MAP/microtubule affinity-regulating kinase 4 (MARK4, Homo sapiens, UniProt Q96L34); cell-free assay, competition with immobilised ligand).
For Serine/threonine-protein kinase/endoribonuclease IRE1 (ERN1, Homo sapiens, UniProt O75460); cell-free assay, competition with immobilised ligand: remaining binding read 100%.
BMP-2-inducible protein kinase (BMP2K, Homo sapiens, UniProt Q9NSY1); cell-free assay, competition with immobilised ligand — remaining binding: 100%.
